Experimental data pooled from the literature.
Each line is one published result; not all experiments were run side by side. Numbers after ± are the reported error.
Proteasome subunit beta type-9: Proteasome subunit beta type-9 (Homo sapiens, UniProt P28065)
UniProt P28065, sequence (whole entry, looked up): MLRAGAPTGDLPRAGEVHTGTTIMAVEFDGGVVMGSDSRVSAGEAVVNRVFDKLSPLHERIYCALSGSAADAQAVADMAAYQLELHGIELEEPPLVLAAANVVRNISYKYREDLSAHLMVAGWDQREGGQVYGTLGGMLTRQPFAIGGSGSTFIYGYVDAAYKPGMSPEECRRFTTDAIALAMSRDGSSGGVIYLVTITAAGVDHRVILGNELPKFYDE
Probable G-protein coupled receptor 34: Probable G-protein coupled receptor 34 (Homo sapiens, UniProt Q9UPC5)
UniProt Q9UPC5, sequence (whole entry, looked up): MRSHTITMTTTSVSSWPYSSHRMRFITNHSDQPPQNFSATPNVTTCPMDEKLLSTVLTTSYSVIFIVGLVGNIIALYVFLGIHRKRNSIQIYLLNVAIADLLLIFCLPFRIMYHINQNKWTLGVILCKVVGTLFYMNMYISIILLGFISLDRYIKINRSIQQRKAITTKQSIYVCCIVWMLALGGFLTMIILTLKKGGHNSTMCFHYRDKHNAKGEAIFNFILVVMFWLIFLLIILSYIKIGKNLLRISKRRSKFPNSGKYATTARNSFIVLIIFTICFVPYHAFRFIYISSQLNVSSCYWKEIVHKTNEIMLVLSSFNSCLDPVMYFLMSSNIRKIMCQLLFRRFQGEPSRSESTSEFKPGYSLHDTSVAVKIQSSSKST
SLC22A11: Solute carrier family 22 member 11 (SLC22A11, Homo sapiens, UniProt Q9NSA0)
UniProt Q9NSA0, sequence (whole entry, looked up): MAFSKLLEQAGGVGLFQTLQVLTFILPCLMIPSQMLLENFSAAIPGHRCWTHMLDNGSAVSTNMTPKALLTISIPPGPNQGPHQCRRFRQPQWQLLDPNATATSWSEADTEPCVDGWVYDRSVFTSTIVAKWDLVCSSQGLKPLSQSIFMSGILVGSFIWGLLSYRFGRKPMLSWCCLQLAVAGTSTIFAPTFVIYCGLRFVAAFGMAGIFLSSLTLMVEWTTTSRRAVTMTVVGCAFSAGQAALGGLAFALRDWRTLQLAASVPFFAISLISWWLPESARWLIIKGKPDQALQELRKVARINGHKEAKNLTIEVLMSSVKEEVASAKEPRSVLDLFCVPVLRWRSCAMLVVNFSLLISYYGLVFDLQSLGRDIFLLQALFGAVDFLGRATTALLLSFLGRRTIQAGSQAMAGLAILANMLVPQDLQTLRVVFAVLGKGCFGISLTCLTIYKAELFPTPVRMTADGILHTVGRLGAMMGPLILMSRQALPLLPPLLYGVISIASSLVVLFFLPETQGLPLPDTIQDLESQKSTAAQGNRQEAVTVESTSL
Moesin with CD44: Moesin, with CD44 (Homo sapiens, UniProt P26038)
UniProt P26038, sequence (whole entry, looked up): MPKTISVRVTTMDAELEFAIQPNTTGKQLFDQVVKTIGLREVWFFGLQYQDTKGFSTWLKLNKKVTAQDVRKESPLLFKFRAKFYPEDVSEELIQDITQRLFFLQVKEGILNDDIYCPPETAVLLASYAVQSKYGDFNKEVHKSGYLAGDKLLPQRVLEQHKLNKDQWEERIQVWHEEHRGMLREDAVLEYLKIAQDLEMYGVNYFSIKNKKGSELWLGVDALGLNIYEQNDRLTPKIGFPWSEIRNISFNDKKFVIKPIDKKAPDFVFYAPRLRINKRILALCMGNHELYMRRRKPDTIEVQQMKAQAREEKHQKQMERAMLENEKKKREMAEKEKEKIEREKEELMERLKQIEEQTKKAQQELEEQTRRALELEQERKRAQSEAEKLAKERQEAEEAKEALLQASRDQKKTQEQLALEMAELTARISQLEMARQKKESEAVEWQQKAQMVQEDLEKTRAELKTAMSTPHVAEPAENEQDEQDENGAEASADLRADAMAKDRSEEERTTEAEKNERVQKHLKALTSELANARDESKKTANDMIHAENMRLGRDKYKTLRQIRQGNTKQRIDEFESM
PADI4: Protein-arginine deiminase type-4 (PADI4, Homo sapiens, UniProt Q9UM07)
UniProt Q9UM07, sequence (whole entry, looked up): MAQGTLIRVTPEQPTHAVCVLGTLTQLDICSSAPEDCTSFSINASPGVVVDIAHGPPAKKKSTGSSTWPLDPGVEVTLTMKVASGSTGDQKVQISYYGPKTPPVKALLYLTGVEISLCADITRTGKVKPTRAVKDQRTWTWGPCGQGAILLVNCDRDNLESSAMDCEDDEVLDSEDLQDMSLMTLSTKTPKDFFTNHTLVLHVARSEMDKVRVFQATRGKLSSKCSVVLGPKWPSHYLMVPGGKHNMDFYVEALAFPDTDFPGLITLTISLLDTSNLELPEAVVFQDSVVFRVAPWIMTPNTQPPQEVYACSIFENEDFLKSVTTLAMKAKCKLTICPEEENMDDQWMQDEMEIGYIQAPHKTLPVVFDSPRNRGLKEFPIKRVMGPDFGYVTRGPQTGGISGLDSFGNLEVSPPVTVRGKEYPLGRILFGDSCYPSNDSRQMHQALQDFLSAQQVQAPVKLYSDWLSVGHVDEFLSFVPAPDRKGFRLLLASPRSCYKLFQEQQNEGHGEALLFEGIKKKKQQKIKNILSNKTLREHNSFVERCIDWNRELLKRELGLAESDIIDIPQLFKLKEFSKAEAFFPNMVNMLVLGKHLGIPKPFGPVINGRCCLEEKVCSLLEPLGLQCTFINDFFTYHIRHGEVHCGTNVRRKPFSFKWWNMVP
P2RX4: P2X purinoceptor 4 (P2RX4, Homo sapiens, UniProt Q99571)
UniProt Q99571, sequence (whole entry, looked up): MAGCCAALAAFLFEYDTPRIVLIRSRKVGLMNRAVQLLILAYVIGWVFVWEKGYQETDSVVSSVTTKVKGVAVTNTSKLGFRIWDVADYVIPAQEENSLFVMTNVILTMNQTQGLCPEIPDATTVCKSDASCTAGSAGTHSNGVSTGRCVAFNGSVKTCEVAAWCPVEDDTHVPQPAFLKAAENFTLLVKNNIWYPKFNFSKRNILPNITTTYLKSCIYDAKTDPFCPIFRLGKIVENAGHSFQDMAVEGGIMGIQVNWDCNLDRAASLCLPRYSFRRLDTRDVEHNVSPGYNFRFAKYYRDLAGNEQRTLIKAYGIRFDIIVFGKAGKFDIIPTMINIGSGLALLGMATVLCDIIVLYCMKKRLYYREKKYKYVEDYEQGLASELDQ
pyrD: Dihydroorotate dehydrogenase (quinone) (pyrD, Acinetobacter baumannii, UniProt B7GZW7)
UniProt B7GZW7, sequence (whole entry, looked up): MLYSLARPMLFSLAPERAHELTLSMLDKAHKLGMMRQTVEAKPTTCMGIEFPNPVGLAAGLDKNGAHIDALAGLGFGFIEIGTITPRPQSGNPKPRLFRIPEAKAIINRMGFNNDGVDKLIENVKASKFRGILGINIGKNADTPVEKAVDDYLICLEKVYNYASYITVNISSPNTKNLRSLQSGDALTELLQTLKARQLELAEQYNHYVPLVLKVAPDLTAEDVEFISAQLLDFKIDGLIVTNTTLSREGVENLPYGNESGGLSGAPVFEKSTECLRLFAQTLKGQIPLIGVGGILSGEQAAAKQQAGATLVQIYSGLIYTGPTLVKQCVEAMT
UniProt Q9NPD5, sequence (whole entry, unmodified, looked up): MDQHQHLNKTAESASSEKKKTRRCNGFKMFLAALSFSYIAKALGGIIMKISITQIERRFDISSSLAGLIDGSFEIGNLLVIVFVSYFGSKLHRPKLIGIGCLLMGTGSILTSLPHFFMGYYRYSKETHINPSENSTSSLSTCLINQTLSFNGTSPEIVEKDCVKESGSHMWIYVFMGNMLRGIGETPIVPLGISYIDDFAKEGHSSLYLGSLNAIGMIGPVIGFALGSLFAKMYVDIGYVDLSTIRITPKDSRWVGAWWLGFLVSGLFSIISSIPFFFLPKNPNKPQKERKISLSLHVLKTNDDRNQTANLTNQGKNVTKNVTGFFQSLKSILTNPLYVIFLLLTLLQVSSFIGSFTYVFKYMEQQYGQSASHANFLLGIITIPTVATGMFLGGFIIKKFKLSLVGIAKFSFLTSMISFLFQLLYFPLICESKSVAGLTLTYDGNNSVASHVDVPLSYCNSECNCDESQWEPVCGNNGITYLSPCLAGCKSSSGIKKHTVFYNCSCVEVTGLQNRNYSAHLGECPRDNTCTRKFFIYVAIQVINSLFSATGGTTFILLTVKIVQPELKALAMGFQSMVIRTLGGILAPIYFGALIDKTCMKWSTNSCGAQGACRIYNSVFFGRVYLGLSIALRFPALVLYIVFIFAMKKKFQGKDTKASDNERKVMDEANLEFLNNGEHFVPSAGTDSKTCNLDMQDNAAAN
UniProt P49720, sequence (whole entry, looked up): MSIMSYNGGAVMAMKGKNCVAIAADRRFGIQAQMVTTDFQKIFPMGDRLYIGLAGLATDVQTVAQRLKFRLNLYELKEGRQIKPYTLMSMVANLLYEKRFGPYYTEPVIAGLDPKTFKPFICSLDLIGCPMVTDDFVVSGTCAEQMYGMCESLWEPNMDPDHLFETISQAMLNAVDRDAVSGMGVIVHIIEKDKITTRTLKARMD
UniProt P10635, sequence (whole entry, looked up): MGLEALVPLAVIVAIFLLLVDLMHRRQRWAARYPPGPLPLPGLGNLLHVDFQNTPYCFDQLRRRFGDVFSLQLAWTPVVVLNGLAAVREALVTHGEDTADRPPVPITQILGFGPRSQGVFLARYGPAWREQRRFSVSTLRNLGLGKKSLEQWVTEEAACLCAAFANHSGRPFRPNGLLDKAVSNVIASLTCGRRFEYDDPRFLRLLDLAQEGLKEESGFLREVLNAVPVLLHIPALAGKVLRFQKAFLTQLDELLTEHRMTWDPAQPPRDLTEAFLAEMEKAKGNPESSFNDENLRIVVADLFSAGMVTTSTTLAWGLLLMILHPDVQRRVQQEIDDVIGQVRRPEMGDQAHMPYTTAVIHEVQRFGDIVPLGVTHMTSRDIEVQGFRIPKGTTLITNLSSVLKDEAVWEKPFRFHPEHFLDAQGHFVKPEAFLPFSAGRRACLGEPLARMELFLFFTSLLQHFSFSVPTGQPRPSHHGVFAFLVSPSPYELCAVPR
UniProt O09061, sequence (whole entry, looked up): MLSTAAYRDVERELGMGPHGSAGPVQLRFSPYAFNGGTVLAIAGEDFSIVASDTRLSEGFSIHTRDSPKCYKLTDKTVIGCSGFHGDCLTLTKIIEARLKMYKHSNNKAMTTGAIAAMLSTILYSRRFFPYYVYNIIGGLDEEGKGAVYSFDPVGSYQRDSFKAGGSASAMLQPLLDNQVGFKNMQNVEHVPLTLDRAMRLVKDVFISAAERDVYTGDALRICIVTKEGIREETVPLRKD
UniProt P00441, sequence (whole entry, looked up): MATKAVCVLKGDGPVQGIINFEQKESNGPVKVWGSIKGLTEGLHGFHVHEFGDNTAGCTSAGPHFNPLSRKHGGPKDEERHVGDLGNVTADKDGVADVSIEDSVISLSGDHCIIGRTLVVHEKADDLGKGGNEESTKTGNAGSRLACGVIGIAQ

For `COc1ccc(C[C@H](NC(=O)[C@H](C)NC(=O)CN2CCOCC2)C(=O)N[C@@H](CC2CCC3CCCCC3C2)C(=O)[C@@]2(C)CO2)cc1` (some centres unmarked), the IC50 was over 10 µM (Proteasome subunit beta type-9; competitive ABPP; Raji cell lysate).
`Cc1cc(Nc2ccc(NC(=O)c3ccc(Nc4ccnc5ccccc45)cc3)cc2)nc(N)n1` has an IC50 of over 10 µM (Probable G-protein coupled receptor 34; antagonist, Tango; added: LysoPS 5 µM).
For `C[C@]12CC[C@@H]3c4ccc(OS(=O)(=O)O)cc4CC[C@H]3[C@@H]1CCC2=O`, the IC50 was 1.61 ± 0.42 µM (SLC22A11; transport, inhibitor; CHO expressing hOAT4; 5 min, added: 6-carboxyfluorescein 25 µM).
`N#Cc1cnc(NC(=O)Nc2cc(Br)ccc2N2CCCCC2)cn1` has an IC50 of 0.0115 µM (Serine/threonine-protein kinase Chk1 (CHEK1, Homo sapiens, UniProt O14757); kinase activity; pH 7.4).
The IC50 of `NCCOCC(=O)N1CCC[C@H](C(=O)NCc2nc(-c3ccc(C(F)(F)F)cc3)cs2)C1` is reported as over 30 µM (PSMB1/PSMB5/PSMB3 (Homo sapiens, UniProt P20618+P28074+P49720)).
`CC(C)C[C@H](NC(=O)[C@H](CCc1ccccc1)NC(=O)CN1CCOCC1)C(=O)N[C@@H](Cc1ccccc1)C(=O)N[C@@H](CC(C)C)C(=O)[C@@]1(C)CO1` has an IC50 of 0.00705 ± 0.00235 µM (Proteasome subunit beta type-1/Psmb8, LMP7 subunit (Mus musculus, UniProt O09061+P28063); proteasome activity, inhibitor; Ba/F3 p210; 1 h pulse).
With `O=C(Nc1ccc(-c2nc3ccccc3[nH]2)cc1)c1cccc(Cl)c1` the IC50 was 6.3 µM (Moesin with CD44; MSN-CD44 binding, inhibitor, TR-FRET).
The IC50 of `CCc1ccc(Cn2nnc3c4ccc(F)cc4c(=O)[nH]c32)cc1` is reported as over 10 µM (Protein mono-ADP-ribosyltransferase PARP11 (PARP11, Homo sapiens, UniProt Q9NR21)).
With `NCCCNCCCCCC(=O)C(F)(F)F` the IC50 was 1.4 µM (Histone deacetylase 6, catalytic domain 2 (hdac6, Danio rerio, UniProt F8W4B7); enzyme activity, inhibitor, fluorogenic substrate; enzyme 3 nM, catalytic domain 2, added: substrate 16 µM).
For `COc1cc(-c2cc(C(C)=O)n3ccccc23)cc(OC)c1Cn1ccnc1`, the IC50 was 0.042 µM (Bromodomain-containing protein 7 (BRD7, Homo sapiens, UniProt Q9NPI1); inhibitor).
`O=C(Nc1ccn(Cc2ccc(O)cc2C(F)(F)F)n1)c1c(F)cccc1F` has an IC50 of 8 µM (Voltage-dependent L-type calcium channel subunit alpha-1C (CACNA1C, Homo sapiens, UniProt Q13936); ion current, antagonist; CaV1.2-expressing cells).
With `Cc1ncc(C(=O)N[C@@H](CC2CCC(C)CC2)C(=O)N[C@@H](CC(C)C)C(=O)N[C@H](/C=C/S(C)(=O)=O)Cc2ccc(CN)cc2)s1` (some centres unmarked) the IC50 was over 10 µM (Proteasome subunit beta type-9; competitive ABPP; Raji cell lysate).
The IC50 of `Cc1nn(-c2nc3c(F)cc(F)cc3s2)c(O)c1C(c1ccccc1C(=O)O)c1c(C)nn(-c2nc3c(F)cc(F)cc3s2)c1O` is reported as 18.4 µM (Cyclic GMP-AMP synthase (CGAS, Homo sapiens, UniProt Q8N884); enzyme activity, pyrophosphatase-coupled; mean of 3 experiments).
The IC50 of `Nc1nc(=O)n([C@H]2C[C@H](O)[C@@H](CO)O2)cc1CSCC[C@H](N)C(=O)O` is reported as over 100 µM (DNA (cytosine-5)-methyltransferase 1 (DNMT1, Homo sapiens, UniProt P26358); truncated enzyme, added: 26 bp hemimethylated DNA, SAM 1 µM).
`CCn1c(-c2nc3cc(C(=O)N4CCC[C@@H](N)C4)cc(OC)c3n2C)cc2cccnc21` gave an IC50 of 0.25 µM (PADI4; binding, fluorescence polarisation; added: 10 nM tracer displacement, 0.2 mM Ca2+).
The IC50 of `O=S(=O)(c1ccccc1Cl)N1CCNCC1COc1ccc2ccccc2c1` (centres unmarked) is reported as 4.07 µM (P2RX4; Ca2+ flux, antagonist; human cells expressing P2RX4; racemate tested).
`COc1ccc(C[C@H](NC(=O)[C@H](C)NC(=O)CN2CCOCC2)C(=O)N[C@@H](CC2CC3CCC2C3)C(=O)[C@@]2(C)CO2)cc1` (mixture of isomers) has an IC50 of over 10 µM (Proteasome subunit beta type-9; competitive ABPP; Raji cell lysate).
For `C=C(C)C1CC=C(C)CC1` (centres unmarked), the IC50 was 900 ± 100 µg/mL (α-amylase).
`COc1ccc(S(=O)(=O)N2CCNCC2COc2ccc3ccccc3c2)cc1` (centres unmarked) gave an IC50 of 4.79 ± 0.19 µM (P2RX4; calcium flux, inhibitor, Ca2+ flux; human cells).
`COC1CCC(C[C@H](NC(=O)[C@H](CC(C)C)NC(=O)c2cnc(C)s2)C(=O)N[C@H](/C=C/S(C)(=O)=O)Cc2ccc(CN)cc2)CC1` (some centres unmarked) has an IC50 of over 10 µM (Proteasome subunit beta type-9; competitive ABPP; Raji cell lysate).
The IC50 of `CCC[C@H](NC(=O)/C(C#N)=C/c1cccc(Br)n1)c1ccccc1` is reported as 2.16 µM (Ubiquitin carboxyl-terminal hydrolase 1 (USP1, Homo sapiens, UniProt O94782); enzyme activity, inhibitor, MALDI-TOF DUB; 35 min preincubation, 30 °C, added: UAF1 complex).
With `c1ccc(N2CCNCC2COc2ccc3c(c2)OCO3)cc1` (centres unmarked) the IC50 was over 10 µM (P2RX4; calcium flux, inhibitor, Ca2+ flux; human cells).
`CCn1c(-c2nc3ccc(C(=O)N4CCCC(N)C4)cc3n2C)cc2ccccc21` (centres unmarked) gave an IC50 of over 100 µM (PADI4; binding, fluorescence polarisation; added: 10 nM tracer displacement, 0.2 mM Ca2+).
`COc1ccc(C(=O)Nc2ccc(-c3nc4ccccc4[nH]3)cc2)c(OC)c1` has an IC50 of 7.3 µM (Moesin with CD44; MSN-CD44 binding, TR-FRET).
`c1cc2c3c(cccc3c1)CC2` has an IC50 of 11 µM (Cytochrome P450 1B1 (CYP1B1, Homo sapiens, UniProt Q16678)).
With `Cn1cc2c(C(=O)O)ccc(NS(=O)(=O)c3ccc(OCC4CCC4)c(Cl)c3)c2n1` the IC50 was over 10 µM (Sodium-dependent dopamine transporter (SLC6A3, Homo sapiens, UniProt Q01959); antagonist).
With `Cn1c(CSc2nc3ccccc3s2)n[nH]c1=S` the IC50 was 3600 µM (ATP-binding cassette sub-family C member 4 (ABCC4, Homo sapiens, UniProt O15439); ATP-dependent transport, inhibitor, inside-out membrane vesicles).
`Cc1ncc(C(=O)N[C@@H](CC(C)C)C(=O)N[C@@H](CC2CCC(C)CC2)C(=O)N[C@H](/C=C/S(C)(=O)=O)Cc2ccc(CN)cc2)s1` (some centres unmarked) gave an IC50 of over 10 µM (Proteasome subunit beta type-9; competitive ABPP; Raji cell lysate).
For `Oc1ccc(Nc2nc(-c3ccccn3)cs2)cc1`, the IC50 was 2.9 µM (CLEC1B, with podoplanin (Homo sapiens, UniProt Q9P126); podoplanin binding, inhibitor, AlphaScreen; 250 nM CLEC-2, added: 50 nM biotinylated podoplanin-Fc).
`CCCc1nc2c(C)cc(-c3nc4ccccc4n3C)cc2n1Cc1ccc(-c2ccccc2C(=O)O)cc1` gave an IC50 of 1.12 ± 0.14 µM (SLC22A11; transport, inhibitor; CHO expressing hOAT4; 5 min, added: 6-carboxyfluorescein 25 µM).
With `Cc1ncc(C(=O)N[C@@H](CC(C)C)C(=O)N[C@@H](CCC2CCCCC2)C(=O)N[C@H](/C=C/S(C)(=O)=O)Cc2ccc(CN)cc2)s1` the IC50 was over 10 µM (Proteasome subunit beta type-9; competitive ABPP; Raji cell lysate).
The IC50 of `CN1CCC(CNc2ccc3ncc(-c4cccc(OC(F)(F)F)c4)n3n2)CC1` is reported as 0.442 µM (Insulin receptor (INSR, Homo sapiens, UniProt P06213); binding, KINOMEscan binding; top concentration 10 µM).
`Cc1oc(C)c(-c2ccc(N(CC(C)C)CC(C)C)c(NC(=O)Nc3cccc(B(O)O)c3)c2)c1C(=O)O` has an IC50 of 56 ± 5 µM (Indoleamine 2,3-dioxygenase 1 (IDO1, Homo sapiens, UniProt P14902); enzyme activity, inhibitor, recombinant enzyme, refers to: kynurenine; 20 min, 2% DMSO, added: L-tryptophan).
With `Nc1cc(Nc2ccc(C(F)(F)F)cc2)n2ncnc2n1` the IC50 was 7 ± 2.6 µM (pyrD; enzyme activity, inhibitor, DCIP steady-state rate).
With `COc1ccc(/C=C/C(=O)Nc2ccccc2C(=O)O)cc1OC` the IC50 was over 75 µM (Superoxide dismutase [Cu-Zn], fully metallated (SOD1, Homo sapiens, UniProt P00441); enzyme activity, inhibitor, XTT).
With `Cc1cc(Nc2ccc(C(F)(F)F)cc2)n2ncnc2n1` the IC50 was 1.6 ± 0.51 µM (pyrD; enzyme activity, inhibitor, DCIP steady-state rate).
`O=C1CN(c2nc(=O)c3cc(C(F)(F)F)cc([N+](=O)[O-])c3s2)CCN1C1CCCC1` gave an IC50 of over 10 µM (Cytochrome P450 2D6 (CYP2D6, Homo sapiens, UniProt P10635); 60 (unit not given), pH 7.4).
For `Fc1ccc(CN2CCNCC2COc2ccc3c(c2)OCO3)cc1` (centres unmarked), the IC50 was 1.86 ± 0.24 µM (P2RX4; calcium flux, inhibitor, Ca2+ flux; human cells).
`Cc1c(CN(C)C(=O)c2cc3nc(-c4ccc(Cl)cc4)cc(C(F)(F)F)n3n2)cnn1C` has an IC50 of over 10 µM (Probable G-protein coupled receptor 34; antagonist, Tango; added: LysoPS 5 µM).
`c1ccc2c(N3CCNCC3COc3ccc4c(c3)OCO4)cccc2c1` (centres unmarked) gave an IC50 of 7.08 ± 0.9 µM (P2RX4; calcium flux, inhibitor, Ca2+ flux; human cells).
`N#Cc1cc(-c2ncnc(Nc3ccc(N4CCN(C5COC5)CC4)cc3)n2)ccc1OC1CCOCC1` gave an IC50 of over 10 µM (Probable G-protein coupled receptor 34; antagonist, Tango; added: LysoPS 5 µM).
For `c1cc(N2CCNCC2COc2ccc3c(c2)OCO3)ccn1` (centres unmarked), the IC50 was 6.17 µM (P2RX4; Ca2+ flux, antagonist; human cells expressing P2RX4; racemate tested).
The IC50 of `CN1CCN(c2ccc(Nc3ncc4cc(C#N)c(=O)n(C5CCCC5)c4n3)cc2)CC1` is reported as 1.99 µM (Mitogen-activated protein kinase kinase kinase 10 (MAP3K10, Homo sapiens, UniProt Q02779)).
The IC50 of `O=S(=O)(c1ccccc1C(F)(F)F)N1CCNCC1COc1ccc2ccccc2c1` (centres unmarked) is reported as 8.31 ± 0.41 µM (P2RX4; calcium flux, inhibitor, Ca2+ flux; human cells).
The IC50 of `Cc1cnc(-c2ccc(-c3ccc(NC(=O)Nc4c(F)cc(F)cc4F)cc3F)c3c2C(=O)NC3)[nH]1` is reported as 0.0821 µM (Tyrosine-protein kinase Fgr (FGR, Homo sapiens, UniProt P09769); enzyme activity, inhibitor, mobility shift; added: ATP 1 mM).
`Cc1c(-c2ccccc2)oc2ccccc2c1=O` has an IC50 of 37.2 µM (LRRC8A (Homo sapiens, UniProt Q8IWT6); hypotonicity-induced current; HEK293).
`CC(C)(/C=C(\C#N)C(=O)N1CCC[C@@H](n2nc(-c3ccc(Oc4ccccc4)cc3F)c3c(N)ncnc32)C1)N1CCN(C2COC2)CC1` gave an IC50 of 1.1 µM (Proto-oncogene tyrosine-protein kinase Src (SRC, Homo sapiens, UniProt P12931)).
`COc1cccc2c1C(=O)c1c(O)c3c(c(O)c1C2=O)C[C@@](O)(C(=O)CO)C[C@@H]3O[C@H]1C[C@H](N)[C@H](O)[C@H](C)O1` gave an IC50 of over 100 µM (Solute carrier organic anion transporter family member 1B3 (SLCO1B3, Homo sapiens, UniProt Q9NPD5, M233I/S112A); estradiol glucuronide uptake, inhibitor; SLCO1B3-expressing cells; 2 min, added: 1 µM [3H]estradiol glucuronide).
`COCCOc1ccc(N2CCNCC2COc2ccc3c(c2)OCO3)cc1` (centres unmarked) has an IC50 of over 10 µM (P2RX4; Ca2+ flux, antagonist; human cells expressing P2RX4; racemate tested).
`COc1ccc(C[C@H](N)C(=O)N[C@H]2[C@@H](O)[C@H](n3cnc4c(N(C)C)ncnc43)O[C@@H]2CO)cc1` has an IC50 of 2.6 µM (rat aminopeptidase III; enzyme activity, inhibitor).

Repeated from above:
For `COc1cc(-c2cc(C(C)=O)n3ccccc23)cc(OC)c1Cn1ccnc1`, the IC50 was 0.042 µM (Bromodomain-containing protein 7 (BRD7, Homo sapiens, UniProt Q9NPI1); inhibitor).
`O=C(Nc1ccn(Cc2ccc(O)cc2C(F)(F)F)n1)c1c(F)cccc1F` has an IC50 of 8 µM (Voltage-dependent L-type calcium channel subunit alpha-1C (CACNA1C, Homo sapiens, UniProt Q13936); ion current, antagonist; CaV1.2-expressing cells).
With `Cc1ncc(C(=O)N[C@@H](CC2CCC(C)CC2)C(=O)N[C@@H](CC(C)C)C(=O)N[C@H](/C=C/S(C)(=O)=O)Cc2ccc(CN)cc2)s1` (some centres unmarked) the IC50 was over 10 µM (Proteasome subunit beta type-9; competitive ABPP; Raji cell lysate).
The IC50 of `Cc1nn(-c2nc3c(F)cc(F)cc3s2)c(O)c1C(c1ccccc1C(=O)O)c1c(C)nn(-c2nc3c(F)cc(F)cc3s2)c1O` is reported as 18.4 µM (Cyclic GMP-AMP synthase (CGAS, Homo sapiens, UniProt Q8N884); enzyme activity, pyrophosphatase-coupled; mean of 3 experiments).
The IC50 of `Nc1nc(=O)n([C@H]2C[C@H](O)[C@@H](CO)O2)cc1CSCC[C@H](N)C(=O)O` is reported as over 100 µM (DNA (cytosine-5)-methyltransferase 1 (DNMT1, Homo sapiens, UniProt P26358); truncated enzyme, added: 26 bp hemimethylated DNA, SAM 1 µM).
